Measurements gathered from unrelated publications.
Every numbered part comes from another study and shows a few of its results, in no order.
UniProt P47898, sequence (whole entry, looked up): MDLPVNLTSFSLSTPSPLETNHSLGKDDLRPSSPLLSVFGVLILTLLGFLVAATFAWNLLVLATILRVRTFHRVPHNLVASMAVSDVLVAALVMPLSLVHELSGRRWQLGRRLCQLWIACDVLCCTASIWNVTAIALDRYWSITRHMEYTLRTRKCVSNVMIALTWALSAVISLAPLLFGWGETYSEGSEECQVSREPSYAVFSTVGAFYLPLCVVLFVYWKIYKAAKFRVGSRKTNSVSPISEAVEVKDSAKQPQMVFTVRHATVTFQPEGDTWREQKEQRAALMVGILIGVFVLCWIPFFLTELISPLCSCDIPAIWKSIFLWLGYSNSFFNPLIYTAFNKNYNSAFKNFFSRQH

Block 1
Host: mouse
Matrix: microsomes or S9
Concentration: 2 µM
Time: 0.5 h
With `CN(CC#N)C(=O)C1=C(c2ccccc2)OCCS1` the remaining compound was 0.561%.
The remaining compound of `O=c1c2cc3c(=O)n(-c4cc(Cl)cc(Cl)c4)ccc3nc2ccn1CCCO` is reported as 71.2%.
The remaining compound of `Cc1cc(C#N)cc(C(=O)c2c(C(C)C)c(=O)[nH]c(=O)n2Cc2cc(F)nc(OCCOCc3ccccc3)c2)c1` is reported as 1.25%.
`Cc1cccc(NC(=N)/N=c2\nc(O)c(Cc3ccccc3)c(C)[nH]2)c1` has a remaining compound of 43.9%.
The remaining compound of `N#Cc1c(NC(=O)c2n[nH]c(-n3cnnc3)n2)sc2c1CCCC2` is reported as over 100%.
For `CN(C)C(CN1C(O)=c2ccccc2=NC12C(=O)Nc1ccccc12)c1ccccc1` (stereo not shown), the remaining compound was 5.05%.
`COc1cc(=O)n2c(c1C(=O)NC1CCCCCC1)CCCC2` gave a remaining compound of 31.4%.
For `COc1ccc(N(C)C(=O)c2cc(S(=O)(=O)N3CCc4ccccc43)cn2C)c(OC)c1`, the remaining compound was under 1%.
With `CC(C)(C)c1nnc2ccc(NC3CCCc4cn(C5CCCC5)nc43)nn12` (stereo not shown) the remaining compound was 25.4%.
With `CN(c1ccccc1)c1ccc2oc(-c3cc(-c4cnn(C5CCNCC5)c4)cnc3N)nc2c1` the remaining compound was under 1%.
`c1ccc(C2CC(c3cccs3)Nc3ncnn32)cc1` (stereo not shown) gave a remaining compound of 1.65%.
The remaining compound of `O=C1CCCC1CC/C=C/S(=O)(=O)c1ccccc1` (stereo not shown) is reported as 0.997%.
With `Cn1nnc(-c2ccc(OCC(=O)Nc3ccc4[nH]ccc4c3)cc2)n1` the remaining compound was 72.4%.
For `Cc1ncsc1CCOC(=O)c1ccc(Cl)cc1`, the remaining compound was 0.625%.
`COCCN(C)S(=O)(=O)c1cc2c(cc1Oc1ccc(Cl)cc1)Oc1ccc(C)cc1NC2=O` gave a remaining compound of 0.44%.
`CCN1CCN(C2(CNc3oc(-c4ccc(Br)o4)nc3C#N)CCCCC2)CC1` has a remaining compound of 57.3%.

Block 2
Matrix: hydrocarbon/water
pH: 7.4
With `CCCCCN1CC(=O)N[C@@H](C)C(=O)N2CCC[C@@H]2C(=O)N(C)[C@@H](CC(C)C)C(=O)N[C@@H](C)C(=O)N(CC)CC(=O)N[C@@H](CC(C)C)C(=O)N2CCC[C@@H]2C(=O)N(C)[C@@H](CC(C)C)C(=O)N[C@@H](C)C1=O` the logD was 1.
`CC(C)CC1NC(=O)CN(CC2CCOCC2)C(=O)C2CCCN2C(=O)C(CC(C)C)NC(=O)C(C)N(C)C(=O)C(CC(C)C)NC(=O)CN(Cc2ccc3c(c2)OCO3)C(=O)C2CCCN2C(=O)C(C)NC(=O)C(C)N(C)C1=O` (stereo not shown) gave a logD of 1.51.
The logD of `CC(C)C[C@@H]1NC(=O)CN(Cc2ccc3c(c2)OCO3)C(=O)[C@H](C)NC(=O)[C@H](CC(C)C)N(C)C(=O)[C@H]2CCCN2C(=O)[C@H](Cc2ccccc2)NC(=O)CN(CC2CCCCC2)C(=O)[C@H](C)NC(=O)[C@H](CC(C)C)N(C)C(=O)[C@H]2CCCN2C1=O` is reported as 3.04.
The logD of `CCCN1CC(=O)N[C@@H](CC(C)C)C(=O)N2CCC[C@@H]2C(=O)N(C)[C@@H](C)C(=O)N[C@@H](CC)C(=O)N(C)[C@@H](C)C(=O)N[C@@H](CC(C)C)C(=O)N(C)Cc2cn(nn2)CC(=O)N[C@@H](CC(C)C)C1=O` is reported as -1.78.
The logD of `CCC[C@H]1NC(=O)[C@H](CC(C)C)NC(=O)[C@H](Cc2ccc(O)cc2)NC(=O)[C@H]2CCCN2C(=O)[C@H](CC2CCCCC2)NC(=O)[C@H](CC2CCCCC2)NC1=O` is reported as 0.807.
With `CC(C)C[C@@H]1NC(=O)[C@H](C)N(C)C(=O)[C@H]2CCCN2C(=O)[C@H](CC(C)C)NC(=O)[C@H](C)N(C)C(=O)[C@@H](C)N(C)C1=O` the logD was -0.167.
`CC(C)C[C@@H]1NC(=O)[C@H](C)N(C)C(=O)[C@H](CC2CCCCC2)NC(=O)[C@H](C)N(C)C(=O)[C@H]2CCCN2C(=O)[C@H](CC2CCCCC2)NC(=O)CN(CC(C)C)C(=O)[C@H](CC(C)C)NC(=O)Cn2cc(nn2)CN(C)C1=O` has a logD of 2.16.
`CCC[C@@H]1NC(=O)CN(CC)C(=O)[C@H](CC(C)C)NC(=O)Cn2cc(nn2)CN(C)C(=O)[C@H](CC(C)C)NC(=O)[C@H](C)N(C)C(=O)[C@H](CC(C)C)NC(=O)[C@H](C)N(C)C(=O)[C@H]2CCCN2C1=O` has a logD of -1.47.
The logD of `CCC[C@@H]1NC(=O)[C@H](C)N(C)C(=O)[C@H](CC(C)C)NC(=O)Cn2cc(nn2)CN(C)C(=O)[C@H](CC(C)C)NC(=O)[C@H](C)N(C)C(=O)[C@H](CC2CCCCC2)NC(=O)CN(CC)C(=O)[C@H]2CCCN2C1=O` is reported as 0.244.
The logD of `CCC[C@@H]1NC(=O)CN(CCC)C(=O)[C@H](CC(C)C)NC(=O)Cn2cc(nn2)CN(C)C(=O)[C@H](CC(C)C)NC(=O)[C@H](C)N(C)C(=O)[C@H](CC(C)C)NC(=O)[C@H](C)N(C)C(=O)[C@H]2CCCN2C1=O` is reported as -0.951.
`CCN1CC(=O)N[C@@H](CC(C)C)C(=O)N2CCC[C@@H]2C(=O)N(C)[C@@H](C)C(=O)N[C@@H](CC(C)C)C(=O)N(C)[C@@H](C)C(=O)N[C@@H](CC(C)C)C(=O)N(C)Cc2cn(nn2)CC(=O)N[C@@H](CC(C)C)C1=O` gave a logD of -1.06.
`CC(C)C[C@@H]1NC(=O)[C@H](Cc2ccccc2)NC(=O)[C@H]2CCCN2C(=O)[C@H](CC(C)C)NC(=O)[C@H](C)NC(=O)[C@@H](C)NC1=O` gave a logD of -1.08.

Block 3
Target: Serine/threonine-protein kinase D2 (PRKD2, Homo sapiens, UniProt Q9BZL6)
Effect on: enzyme activity
Mode: inhibitor
Concentration: 0.5 µM
Reference: control
Target sequence (Q9BZL6 1-878): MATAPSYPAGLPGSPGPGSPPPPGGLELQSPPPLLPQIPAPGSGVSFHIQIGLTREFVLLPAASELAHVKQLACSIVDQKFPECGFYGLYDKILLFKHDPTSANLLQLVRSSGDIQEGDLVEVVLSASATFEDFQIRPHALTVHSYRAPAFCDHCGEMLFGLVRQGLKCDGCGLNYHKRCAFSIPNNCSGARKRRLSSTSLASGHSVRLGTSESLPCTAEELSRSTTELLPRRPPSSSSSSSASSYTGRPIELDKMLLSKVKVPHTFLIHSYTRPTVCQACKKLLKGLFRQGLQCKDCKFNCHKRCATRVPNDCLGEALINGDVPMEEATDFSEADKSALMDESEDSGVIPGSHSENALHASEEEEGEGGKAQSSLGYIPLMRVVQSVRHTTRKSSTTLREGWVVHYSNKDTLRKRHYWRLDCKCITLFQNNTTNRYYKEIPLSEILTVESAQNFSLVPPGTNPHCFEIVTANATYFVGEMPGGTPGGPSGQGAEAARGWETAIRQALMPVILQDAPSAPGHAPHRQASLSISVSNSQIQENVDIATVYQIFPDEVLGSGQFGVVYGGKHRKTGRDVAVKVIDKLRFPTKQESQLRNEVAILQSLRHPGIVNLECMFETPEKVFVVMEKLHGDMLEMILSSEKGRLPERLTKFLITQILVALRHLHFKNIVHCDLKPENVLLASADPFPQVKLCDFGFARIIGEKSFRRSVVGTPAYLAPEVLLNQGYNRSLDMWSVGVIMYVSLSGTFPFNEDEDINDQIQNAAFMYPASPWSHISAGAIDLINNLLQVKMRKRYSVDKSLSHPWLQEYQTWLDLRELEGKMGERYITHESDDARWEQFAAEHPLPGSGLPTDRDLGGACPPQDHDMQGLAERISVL
With `Cc1ccc(NC2=CC(=O)c3sc(C)nc3C2=O)cc1` the remaining activity was 87.7%.
With `Nc1ncnc2c1cnn2-c1ccccc1` the remaining activity was 126%.
The remaining activity of `O=S(=O)(NCCNC/C=C/c1ccc(Br)cc1)c1cccc2cnccc12` is reported as 75.9%.
The remaining activity of `CC[n+]1c(/C=C/N(C)c2ccccc2)n(-c2ccccc2)c2ccc(-c3nc4ccccc4s3)cc21` is reported as 102%.
`CC(C)(C)n1nc(Cc2cccc3ccccc23)c2c(N)ncnc21` gave a remaining activity of 30.7%.
With `Cc1cncc2cccc(S(=O)(=O)N3CCCN(C(=O)CN)C[C@@H]3C)c12` the remaining activity was 96%.
`N#CC(=C(N)Sc1ccc(N)cc1)c1ccccc1C(F)(F)F` gave a remaining activity of 93.4%.
`COc1cc(Nc2c(C#N)cnc3cc(OCCCN4CCN(C)CC4)c(OC)cc23)c(Cl)cc1Cl` has a remaining activity of 35.5%.
`O=C1NC(=O)C(c2c[nH]c3ccccc23)=C1c1c[nH]c2ccccc12` gave a remaining activity of 87.4%.
For `CCCC(=O)Oc1ccc2[nH]c(C(=O)c3cc4ccccc4[nH]3)cc2c1`, the remaining activity was 91.7%.
The remaining activity of `O=C1Cc2c([nH]c3ccc([N+](=O)[O-])cc23)-c2ccccc2N1` is reported as 101%.
For `Nc1nccc(-c2c(-c3ccc(F)cc3)ncn2C2CCNCC2)n1`, the remaining activity was 50.4%.
With `CC(=O)c1ccc(N2CCOCC2)cc1O` the remaining activity was 97.4%.
`CC#CC(=O)Nc1cc2c(Nc3ccc(F)c(Cl)c3)ncnc2cn1` gave a remaining activity of 97.6%.
With `Nc1nc(Nc2ccc(S(N)(=O)=O)cc2)nn1C(=O)c1c(F)cccc1F` the remaining activity was 86%.
`Fc1ccc(-c2nc3n(c2-c2ccncc2)CCS3)cc1` gave a remaining activity of 94.7%.
With `NC(=O)c1ccc(N(C(N)=O)c2c(F)cccc2F)nc1-c1ccc(F)cc1F` the remaining activity was 81.8%.
`COc1ccc(S(=O)(=O)N(CCO)c2ccccc2CN(C)CC=Cc2ccc(Cl)cc2)cc1` has a remaining activity of 99.8%.
With `CSc1nc(-c2ccnc(N[C@@H](C)c3ccccc3)c2)c(-c2ccc(F)cc2)[nH]1` (racemic) the remaining activity was 86.4%.
For `CCc1[nH]c(-c2ccc(OC)cc2)nc1-c1ccncc1`, the remaining activity was 102%.
`Oc1ccc(Nc2nc(-c3ccc(Cl)cc3)cs2)cc1` gave a remaining activity of 102%.
With `Cc1cc(Nc2nc(-c3ccccc3)nc3ccccc23)n[nH]1` the remaining activity was 75.9%.

Single results of other studies
With `Cc1cc(Nc2nccc(C)n2)cc(-c2cnc([C@@]3(O)CC[C@H](C(=O)O)C(C)(C)C3)s2)c1` the inhibition was 10% (HTR5A (Homo sapiens, UniProt P47898); ligand displacement; 10 µM).
`CCCCN(CCCC)C(=O)CN1C[C@H](c2cc(OC)c3c(c2)OCO3)[C@@H](C(=O)O)[C@@H]1CC(C)(C)CCC` gave a viability of 106% (sample G normal colon organoids; CellTiter-Glo; human patient-derived organoids; 0.1 µM, 4 days; reference: DMSO control).

For quick reference, copied from above (block 2):
`CC(C)C[C@@H]1NC(=O)[C@H](C)N(C)C(=O)[C@H](CC2CCCCC2)NC(=O)[C@H](C)N(C)C(=O)[C@H]2CCCN2C(=O)[C@H](CC2CCCCC2)NC(=O)CN(CC(C)C)C(=O)[C@H](CC(C)C)NC(=O)Cn2cc(nn2)CN(C)C1=O` has a logD of 2.16.
`CCC[C@@H]1NC(=O)CN(CC)C(=O)[C@H](CC(C)C)NC(=O)Cn2cc(nn2)CN(C)C(=O)[C@H](CC(C)C)NC(=O)[C@H](C)N(C)C(=O)[C@H](CC(C)C)NC(=O)[C@H](C)N(C)C(=O)[C@H]2CCCN2C1=O` has a logD of -1.47.
The logD of `CCC[C@@H]1NC(=O)[C@H](C)N(C)C(=O)[C@H](CC(C)C)NC(=O)Cn2cc(nn2)CN(C)C(=O)[C@H](CC(C)C)NC(=O)[C@H](C)N(C)C(=O)[C@H](CC2CCCCC2)NC(=O)CN(CC)C(=O)[C@H]2CCCN2C1=O` is reported as 0.244.
The logD of `CCC[C@@H]1NC(=O)CN(CCC)C(=O)[C@H](CC(C)C)NC(=O)Cn2cc(nn2)CN(C)C(=O)[C@H](CC(C)C)NC(=O)[C@H](C)N(C)C(=O)[C@H](CC(C)C)NC(=O)[C@H](C)N(C)C(=O)[C@H]2CCCN2C1=O` is reported as -0.951.
`CCN1CC(=O)N[C@@H](CC(C)C)C(=O)N2CCC[C@@H]2C(=O)N(C)[C@@H](C)C(=O)N[C@@H](CC(C)C)C(=O)N(C)[C@@H](C)C(=O)N[C@@H](CC(C)C)C(=O)N(C)Cc2cn(nn2)CC(=O)N[C@@H](CC(C)C)C1=O` gave a logD of -1.06.
`CC(C)C[C@@H]1NC(=O)[C@H](Cc2ccccc2)NC(=O)[C@H]2CCCN2C(=O)[C@H](CC(C)C)NC(=O)[C@H](C)NC(=O)[C@@H](C)NC1=O` gave a logD of -1.08.
